Results collected from several papers.
Each line is one published result; not all experiments were run side by side. Numbers after ± are the reported error.

Molecule = ILPWIWPWWPWRR; target or system = Escherichia coli; system = peptide, K-12 MG1655, Mueller-Hinton broth; conditions = concentration not given, 37 °C, unit not given; scale = relative to: no peptide; quantity = growth rate; result = 0.645
Molecule = vancomycin; target or system = Escherichia coli; test = bacterial growth; quantity = IC50; result = > 40 µM
Molecule = colistin; target or system = Escherichia coli; system = 1191008, multidrug-resistant; quantity = MIC; result = 0.25 µg/mL
Molecule = polymyxin B; target or system = Escherichia coli; system = W3110, colistin-sensitive, Mueller-Hinton broth; quantity = MIC; result = 0.5 µg/mL
Molecule = Polymyxin B; target or system = Escherichia coli; test = broth microdilution, MH medium; system = carbapenem-resistant NCCP 16046; conditions = 16 h, 37 °C; quantity = MIC; result = 2 µM
Molecule = ILPWVWPWWPWRR; target or system = Escherichia coli; system = peptide, K-12 MG1655, Mueller-Hinton broth; conditions = concentration not given, 37 °C, unit not given; scale = relative to: no peptide; quantity = growth rate; result = 0.157
Molecule = colistin; target or system = Escherichia coli; test = broth microdilution; system = mcr-1 resistant isolate; quantity = MIC; result = 2 µg/mL
Molecule = gramicidin D; target or system = Escherichia coli; test = checkerboard; system = tetracycline-resistant (pBR322); conditions = 20 µM, added: tetracycline; quantity = tetracycline MIC; result = 900 ± 100 µM
Molecule = RRHQRSRRPYHRMPNP; target or system = Escherichia coli; test = bacterial survival, plate count; system = peptide; conditions = 20 µM, 4 h, room temperature; scale = relative to: untreated control; quantity = bacterial killing; result = 21.1%
Molecule = ILPWSWPWWPWRR; target or system = Escherichia coli; system = peptide, K-12 MG1655, Mueller-Hinton broth; conditions = concentration not given, 37 °C, unit not given; scale = relative to: no peptide; quantity = growth rate; result = 0.229
Molecule = benzalkonium chloride; target or system = Escherichia coli; test = bacterial survival, bioluminescence; system = bioluminescent; conditions = 1 h, dark; quantity = IC50; result = 19.7 µM
Molecule = KYKKSKNGY; target or system = Escherichia coli; test = bacterial survival, plate count; system = peptide; conditions = 20 µM, 4 h, room temperature; scale = relative to: untreated control; quantity = bacterial killing; result = 15%
Molecule = insulin human; test = measured: CAMK4 mRNA; system = EcoHIV-infected mouse, brain; conditions = i.p., dose not given; scale = relative to: PBS; quantity = fold change; result = 1.08
Molecule = ILPWTWPWWPWRR; target or system = Escherichia coli; system = peptide, K-12 MG1655, Mueller-Hinton broth; conditions = concentration not given, 37 °C, unit not given; scale = relative to: no peptide; quantity = growth rate; result = 0.517
Molecule = Polymyxin B; target or system = Escherichia coli; test = broth microdilution; system = ATCC 25922; conditions = 20 h; quantity = MIC; result = 2 µg/mL
Molecule = KKRRRGLSRFRMGRGY; target or system = Escherichia coli; test = bacterial survival, plate count; system = peptide; conditions = 20 µM, 4 h, room temperature; scale = relative to: untreated control; quantity = bacterial killing; result = 90.3%
Molecule = SAISFWLSIGLIK; target or system = Escherichia coli; test = bacterial growth, OD600 growth curve; system = peptide, K12 MG1655, MHB broth; conditions = 40 µM, 24 h, 37 °C; scale = relative to: no peptide control; quantity = relative growth rate; result = 0.404

Excerpt of the above:
Molecule = polymyxin B; target or system = Escherichia coli; system = W3110, colistin-sensitive, Mueller-Hinton broth; quantity = MIC; result = 0.5 µg/mL
Molecule = benzalkonium chloride; target or system = Escherichia coli; test = bacterial survival, bioluminescence; system = bioluminescent; conditions = 1 h, dark; quantity = IC50; result = 19.7 µM
